Experimental data of several laboratories.
A part holds a random share of what one study measured. Values joined by “and” are separate records of one study, mostly repeats; a detail may differ.

Set 1
Target: RING finger protein unkempt homolog, zinc fingers 1-6, GST-SBP tag (UNK, Homo sapiens, UniProt Q9C0B0, residues 30-357)
Method: RNA Bind-n-Seq
Form: RNA
Medium: in vitro
Concentration: not given
Setting: RNA with constant flanks, human-mouse chimeric sites, ends assumed
Reference: input RNA pool
Direction: higher = stronger binding
Quantity: bound/input enrichment
Shared flanks, not repeated: GGGAGUUCUACAGUCCGACGAUC … CAACAGAGGAUUGAGCAUCA
Residues (chain): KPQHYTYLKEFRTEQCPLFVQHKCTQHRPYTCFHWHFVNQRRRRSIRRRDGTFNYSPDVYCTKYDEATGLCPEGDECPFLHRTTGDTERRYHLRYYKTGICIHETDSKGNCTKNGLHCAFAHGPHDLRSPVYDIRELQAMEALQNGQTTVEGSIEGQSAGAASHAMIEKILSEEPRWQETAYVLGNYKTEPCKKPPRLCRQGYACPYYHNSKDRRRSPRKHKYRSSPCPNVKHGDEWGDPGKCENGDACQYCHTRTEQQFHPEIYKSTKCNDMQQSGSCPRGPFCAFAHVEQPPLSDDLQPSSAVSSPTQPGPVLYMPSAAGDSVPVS
Sequence = CGGAGCCCUCCUCUCCCCCAGGCCCGAGAUAUAACCCACCAGUGCCUUUUGUCUUCCUGUCAGCUCUGUCAAUCACGCCUGUCCUCUCACGCCCACACCAAGUGCCCAAAGUGGGGAGGG; value = 0.539 ratio
Sequence = CGAGACAAGACAUCCAGGAACAUGCGAGGCUCCCGGAUGAAUGGGUUGCCUAGCCCCACUCACAGCGCCCACUGUAGCUUCUACCGAACCAGAACCUUGCAGGCACUGAGUAAUGAGAAG; value = 0.0956 ratio
Sequence = ACAGUUAUAUUGUUGAGUUUCAUUUUCAUAUAUUCUUGUAGUGUCUGCUUGCCUGUGACUUCUGGUAAAAUAAAAUAUUAAAAUUACAAUAUUUUAGCAUGGUAUUUAACAUUUUCUAAA; value = 1.46 ratio
Sequence = CCUCUGCCCCGCUCUGCAGCCUGGGGACACUGGGCUGGGACCAGAAUCCAGCUUUCUUUUAAUAGUGUCAGUGUAACUGUAUCCCGUGACAUUUCAUUUUUUUUAAAUAGUGUAUUUUUU; value = 6.77 ratio
Sequence = GAAACAUUUAAAUUUAAAGAAGCUGUUGUUUUAGGGAGUACGGACUUUCUAGAAGAUGAUAUAGAAAAAAUUGUAGAAGAACUGGGGAAAGAGUAUAAGGGCAACGCCUACCAUCUGAUG; value = 3.42 ratio
Sequence = AAAGCCCAAGUAUUUUGAAAAAACUCGAACAGAUUUAACAAGGGUAGCCAGCUUGGAGUCUAGCAACUUUGCCAAUGGUUUACCAAUCUGGGGGCUUGUUUUUCUUUUCUUCUUUCAAAU; value = 0.242 ratio
Sequence = AUUCCGAUUAUGGACACCGGUGAAAACCCAGAGGUUCCCUUCCCUCGGGACAUGAUUGACUUAGAGGCCAAUUUUGAGAAGAUUGAAAAUGAACUGAAGGAAAUCAACACUAACCAGGAA; value = 0.122 ratio

Set 2
Target: Fragile X messenger ribonucleoprotein 1, C-terminal low-complexity region (Fmr1, Mus musculus, UniProt P35922)
Method: RNA Bind-n-Seq
Form: RNA
Medium: in vitro
Concentration: 200 nM
Setting: whole 134-nt RNA, ends assumed
With: 150 mM LiCl
Reference: input library
Direction: higher = stronger binding
Quantity: log2 enrichment
Each molecule: 7-deaza-guanosine replaces G
Shared flanks, not repeated: GGGAGUUCUACAGUCCGACGAUC … UGGAAUUCUCGGGUGUCAAGG
Sequence = UCCUGUGCUACACAUCGUAUGUACCGAAUCGGGUUUUUUGGUUUUUUGGGUUUUUUGGGGAAAGUAUUAUGUUACGCCGUUCGGAUCUGC; value = -1.59
Sequence = UGUUUUAAGGUUGCCAACUUUGCAACAAUGGAAGAUGAAGAAGAGCUAGAAGAGCGUCCUCACAAGGACUGGGAUGAGAUCAUUCCAGAG; value = -2.4
Sequence = ACCAUGCAGGUGGGCAUCUUUGGGAAGUGGGGCCAGGGGGGGAUAGGGAGGGGGGUAACACUUUGGGAACAGGUGGUCCCAGGUCGUUUC; value = 1.2
Sequence = UGGAUUAGAGAGAAAUUGAAUUUUUUCUUACUUGAACUCCUACUAAAAAGUGAACUAAAUAUUUUAUUGUAGUAAUGGCAUAGAGGAGCC; value = -3.02
Sequence = UCCUGUGCUACACAUCGUAUGUACCGAAUCGGUUUUUUUGGUUUUUUUGGAAAAAAAGGAAAGUAUUAUGUUACGCCGUUCGGAUCUGCA; value = -2.04
Sequence = UGGGAGGUGGAUUUUGUUUAUUUAUUUAGCUCAUUUCCAGGGGUGGGAAUUUUUUUUUAAUAUGUGUCAUGAAUAAAGUUGUUUUUGAAA; value = -0.523
Sequence = AGUCCUGUGCUACACAUCGUAUGUACCGAAUCGGGCCCCCGGCCCCCGGCCCCCGGGGAAAGUAUUAUGUUACGCCGUUCGGAUCUGCAC; value = -0.377
Sequence = CACAGACAACACGUACCCACACAGACACAGAGGGAAGGGGUUGGGAUGGGGACAGGGUGCACAGCAGGGCGGGGUAGGACCCCAGCCCCU; value = 0.0243
Sequence = AAGUCCUGUGCUACACAUCGUAUGUACCGAAUCGGGGAGGGGUGGGGUUUUUGGGGAAAGUAUUAUGUUACGCCGUUCGGAUCUGCACUU; value = -0.595
Sequence = CACAGACAACACGCACCAAAACAGACACAGAGGGAAGGGGUUGGGAUGGGGACAGGGUGCACAGCAGGGCGGGGUAGGACCCCAGCCCCU; value = 1.04
Sequence = UCCCUAUUCCAGUCAUACACGUGGACCUAACUGCACCAGUAGCUUUUCUGAGAAUACUUGCUGAAAAGGAAGUUUUCUGGAAUGGGUAAG; value = -0.969

Set 3
Target: RNA binding protein fox-1 homolog 2, RRM domain, GST-SBP tag (RBFOX2, Homo sapiens, UniProt O43251-10, residues 100-194)
Method: RNA Bind-n-Seq
Form: RNA
Medium: in vitro
Concentration: 365 nM
Setting: natural RNA segment, single round, ends assumed
Reference: no-protein control
Direction: higher = stronger binding
Quantity: RBNS enrichment (R)
Shared flanks, not repeated: GGGAGUUCUACAGUCCGACGAUC … UGGAAUUCUCGGGUGCCAA
Construct (chain): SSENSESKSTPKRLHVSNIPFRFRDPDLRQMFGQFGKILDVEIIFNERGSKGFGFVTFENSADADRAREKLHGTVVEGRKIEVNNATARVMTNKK
Sequence = UAUAGAUAUAAGCACCUCUCUAAAGAAUCUUUAGUUUCCGACGUUGAAUUAUAGACCAGUUUGAGUAAGUACUGCUUUUUUUUUUUGGAGACGGGCUCUCGCUCUGUUGC; value = 0.417
Sequence = UCCCCCAAGACGAAUAUCCAGAAAUCAAUUUUGUGGGGCUCCUAAUUGGACCCAGGGGGAACACCCUGAAGAACAUUGAGAAGGAAUGCAACGCCAAGAUCAUGAUUCGG; value = 0.602
Sequence = GUGUCCCCCAGGUUCCGAAGAAGAUGCUCCAGCAACACAGCCUGGGCCCCAGCUCGCGGGACCCGACCCCCCGUGGGCUCCCGUGUUUUGUAGGAGACUUGCCAGAGCCG; value = 0.358
Sequence = GGAUGGGCACCACAGACAGGAGGCCCCUCAGGCCCGUGCGGGCCACUGUCUGCUGCCGCCUGCCGGGGUGGCAGAGUGAGUUGUCUCAGGACCCCGUCACUGCGACGUUG; value = 0.618
Sequence = ACUAUCACCUCUCUAAUUUAAAAUGCAUGAAAAUUAAUACUUUGUUUUUGUUUUUUUUUUGGAAACAGUCUCACUCUGUCACCCAGGCUGGAGGGCACAAUCUCUGCUCA; value = 5.4
Sequence = CAAAUUCCUGAUGUUCUGCAAUACUCAGAAAAUUCUUUGAAUGGCAGACUUUCUUUUGUCUGUUUCUAAAAUGUGAAGCUUUAGGACCAAAUUGUUAGACAGCAUCAGGA; value = 8.14
Sequence = AAAAACCAGUUUCUCACGGAGGUUGAACCUAUCUGUGGCUGGACAGUCUUGGAUACUGUCAAGCAAACACCAGAGGCUUGGCCAAGUAUAGUUACAAUUACCUAGUUGGG; value = 0.363
Sequence = UUUAGAUCUUCUGGGGUAUGCACAGCUUUAAUGAAUUAAAUUUACUGGAAUCAAUUGAAAUAAGAGGACUCAAGGUUUGUUCUAAUGAAGUUUGUCAAAUUACUCUUUGG; value = 0.427
Sequence = GCAGCAGUGUUGUUUUGUUUGAAGUGCACACUCUAUGGUACGAGGUGUUUAGUAUACCCAAGCAGAUAGGUGUCGAUCGAACAGGAGCAGGGAGAAUACUUCCAACAGUU; value = 0.645
Sequence = GAGAAUGGGUAUUUGAUGGAGGCUGCGCCGGAGUGAGAGGUCGUCCUCUCCAUCUGCUGUGUUUGGACGCGUUCCUGCCCAGCCCCUUGCUGUCAUCCCCUCCCCCAACC; value = 0.618
Sequence = UCUAAUUGUUUAAACUGUGUUUUAUACCAGUGUUUGCAAGUAAUUGGGUGUUAGCUUGAGAUGGUUAAAGGUGGUUUGGGGAGGGACUUCGUUGUAAUGGUUUUGCUGUA; value = 7.84
Sequence = AUGGUUACACUGUUAGAACACUAUUUUUCAGAAUCUGAAUGUAAUUUGUGUAAUAAAGUGUUUUCAGGCAUUAGCAGUCAGAGUGUAUUUUUGUGAUUUUUUGCACACUU; value = 0.855

Other studies, line by line
Molecule = PhoQ, residues 284 288 289 292 302 303 ASVMEA; target = PhoP, residues 12 14 15 18 19 LWHSL (Escherichia coli, UniProt P23836); test = Sort-seq, item: YFP reporter; test system = E. coli; setting = PhoQ-PhoP variant library, with: 10 µM Mg2+; scale = reference: high Mg2+ state, higher = stronger signaling; quantity = fold induction; value = 10.3 and 22.2

Repeated from above (set 1):
Sequence = ACAGUUAUAUUGUUGAGUUUCAUUUUCAUAUAUUCUUGUAGUGUCUGCUUGCCUGUGACUUCUGGUAAAAUAAAAUAUUAAAAUUACAAUAUUUUAGCAUGGUAUUUAACAUUUUCUAAA; value = 1.46 ratio
Sequence = CCUCUGCCCCGCUCUGCAGCCUGGGGACACUGGGCUGGGACCAGAAUCCAGCUUUCUUUUAAUAGUGUCAGUGUAACUGUAUCCCGUGACAUUUCAUUUUUUUUAAAUAGUGUAUUUUUU; value = 6.77 ratio
Sequence = GAAACAUUUAAAUUUAAAGAAGCUGUUGUUUUAGGGAGUACGGACUUUCUAGAAGAUGAUAUAGAAAAAAUUGUAGAAGAACUGGGGAAAGAGUAUAAGGGCAACGCCUACCAUCUGAUG; value = 3.42 ratio
Sequence = AAAGCCCAAGUAUUUUGAAAAAACUCGAACAGAUUUAACAAGGGUAGCCAGCUUGGAGUCUAGCAACUUUGCCAAUGGUUUACCAAUCUGGGGGCUUGUUUUUCUUUUCUUCUUUCAAAU; value = 0.242 ratio
Sequence = AUUCCGAUUAUGGACACCGGUGAAAACCCAGAGGUUCCCUUCCCUCGGGACAUGAUUGACUUAGAGGCCAAUUUUGAGAAGAUUGAAAAUGAACUGAAGGAAAUCAACACUAACCAGGAA; value = 0.122 ratio
